Measurements collected from several papers.
Parts stem from different laboratories: compare values within a part only. Positions count from the first letter of the parent shown.

Set 1
Target: Centromere-binding protein 1, full length, N-terminal tag (CBF1, Saccharomyces cerevisiae, UniProt P17106, residues 1-351)
Chain of UniProt P17106 (whole entry, looked up): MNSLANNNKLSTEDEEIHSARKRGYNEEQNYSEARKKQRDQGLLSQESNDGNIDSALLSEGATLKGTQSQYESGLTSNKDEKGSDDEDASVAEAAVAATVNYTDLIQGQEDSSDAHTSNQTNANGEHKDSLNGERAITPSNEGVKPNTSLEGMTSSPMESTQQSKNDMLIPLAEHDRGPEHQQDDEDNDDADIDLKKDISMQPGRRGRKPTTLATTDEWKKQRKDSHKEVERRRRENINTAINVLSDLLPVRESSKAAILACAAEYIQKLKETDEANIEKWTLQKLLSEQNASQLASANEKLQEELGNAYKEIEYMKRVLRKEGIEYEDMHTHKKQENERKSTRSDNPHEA
Technique: protein-binding microarray
Form: double-stranded DNA, one strand shown
Medium: in vitro
Tested at: 0.8 µM
Notes: whole 60-bp probe, no competitor
Direction: higher = stronger binding
Quantity: fluorescence intensity
All sequences stand within: … GTCTTGATTCGCTTGACGCTGCTG
GAATCAAATTTCGAAAAGGTGATGACGCCCTATTAG: 504 a.u.
GAACTATGTCCATATCACGCGCGCTAAAACAGCTAG: 1230 a.u.
CTAGTTATCGTATGTCACCTGGCACTCATTAGTTTC: 843 a.u.
GAAAAATGGTGGGGTGTGATGGCGCAGACTGTGTAG: 527 a.u.
CTAAATAAAATGAGAAACGTGCTTCCAGTTCAATTC: 691 a.u.
CTAACAAACTTCGGGCACGTCTTTTAAATAGGTTTC: 541 a.u.
CTACACCCGCGGGTCGTGATCACGATTCAGCACTTC: 3020 a.u.
CTATCAACTAGTAGTCACACTACCAATATATTATTC: 900 a.u.

Set 2
Target: Hepatocyte nuclear factor 3-alpha (Foxa1, Mus musculus, UniProt P35582, residues 1-468, full length assumed)
Chain of UniProt P35582 (whole entry, looked up): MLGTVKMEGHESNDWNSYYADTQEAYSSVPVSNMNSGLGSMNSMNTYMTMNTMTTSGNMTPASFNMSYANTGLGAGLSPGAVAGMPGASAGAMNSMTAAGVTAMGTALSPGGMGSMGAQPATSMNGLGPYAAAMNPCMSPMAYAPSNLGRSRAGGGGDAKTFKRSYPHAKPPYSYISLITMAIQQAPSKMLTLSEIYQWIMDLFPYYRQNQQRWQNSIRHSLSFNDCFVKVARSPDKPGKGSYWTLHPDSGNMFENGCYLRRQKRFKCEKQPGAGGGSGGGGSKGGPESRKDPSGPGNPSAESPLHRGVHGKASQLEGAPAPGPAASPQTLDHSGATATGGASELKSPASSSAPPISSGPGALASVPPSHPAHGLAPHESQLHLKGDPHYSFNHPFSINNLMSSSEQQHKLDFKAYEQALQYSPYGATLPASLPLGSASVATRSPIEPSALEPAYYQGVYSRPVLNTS
Technique: EMSA with sequencing
Form: double-stranded DNA, one strand shown
Medium: in vitro
Tested at: 10 and 20 nM
Notes: whole designed probe, mean of two concentrations, ends assumed
Reference: negative control set to 0
Direction: higher = stronger binding
Quantity: normalised bound fraction
All sequences stand within: GTGAGCGGTGCCCATTGATGGGGAAC … TTTCACTGGGATCGTGGGGAC
TGTATCCATCTGGGCAGTATCTTCTCTGGGCCTGGCCTGTCATAGGTGCTTCAGGTTTCCCCATTTGAACCAGATACCAGTCGGGTTACCGGATGTTTGCTTAAAATGAGTCATAAGGCTTCCTGCTTTCCTGTGCTGCTTCCAGCTAGGACTGATCGAATCAGTCTGGATTTTCCTTGGGGTGATCCGCAGG: 0.139 ratio
CTGACAGCATGATTTAATGGCCTGGTTGCTCCATGAGTTGACATGGCAACCACAGAAAATGCCATAAATATCTGAGTGTGGACGTGAATGCTAAGATTACATTGTGTGTGGTGCATTGTGTGACATGTGGTGGCTGTTGTCTCTTCCAGTTGGAAACGTCTGGAATTGACAGCCATGTTTTAGAGCCATTTGG: -0.0305 ratio
ATCTTCCCCCTCTTCCTTGCCCCACCAGCTCACCTTCCCGGGTATATTGGAGATAGGAAAATAAATAAAGCCGGCATTCGTTAACCCTCTTCTGGCGCAAACTGCTGTTTGCTCTGGATGAATCATGGTCCTTTGGCGACGCCAGGCTCCGGGAGAGCAAAGCACCGTGTCAGGGCCATGATCCGGGGTGGCC: 0.31 ratio
GAAATCAGATGGGAACAAACTATTCCAATATACAAATCAAATTTCAGAGTCTGAGTGTACACAGAAAAATTACTGGATATCCTGTTGGACTATGTACTTTACAATGACACAGTGATTTATGAGGGTATGATGGGGCAGAGGGTAGCGGGTGATGTTGGAGTTGATTCATCACTTAAGCGCTAATCCATTCACC: 0.0811 ratio
ATCTTCCCCCTCTTCCTTGCCCCACCAGCTCACCTTCCCGGGTTATTTGCACAAAGGAAAATAAATAAAGCCGGCATTCGTTAACGCAGTTCTGGCGCAAACTGCTGTTTGCTCTGGATCTAACATGGTCCTTTGGCGACGCCAGGCTCCGGGAGAGCAAAGCACCGTGTCAGGGCCATGATCCGGGCTCGCC: 0.378 ratio

Single results of other studies
P1: viral docking peptide; KGVKRKLFAEDSS; partner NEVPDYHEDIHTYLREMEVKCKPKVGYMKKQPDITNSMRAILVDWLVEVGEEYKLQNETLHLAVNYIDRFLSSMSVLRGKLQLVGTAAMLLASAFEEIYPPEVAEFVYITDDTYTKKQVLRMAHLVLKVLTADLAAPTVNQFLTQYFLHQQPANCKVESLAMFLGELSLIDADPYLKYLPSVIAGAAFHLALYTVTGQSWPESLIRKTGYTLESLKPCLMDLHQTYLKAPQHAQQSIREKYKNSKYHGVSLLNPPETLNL
PSMD12 (Homo sapiens, UniProt O00232) — cross-linked residues (PSMD10 (Homo sapiens, UniProt O75832); cross-linking MS; cell fractions; with: DSSO): K52 to K30
P1 L7F — normalised enrichment score (CCNA2, cyclin fold, Cln2 fusion (human); yeast growth competition, sequencing; yeast; strong parent motif; reference: not given, higher = stronger binding): 0.783
PRPF4 (Homo sapiens, UniProt O43172) — interaction screen (PRPF6 (Homo sapiens, UniProt O94906); cross-linking MS; hits only): cross-linked
PhoQ, residues 284 288 289 292 302 303 AQGLTV — fold induction (PhoP, residues 12 14 15 18 19 TPLRH (Escherichia coli, UniProt P23836); Sort-seq, measured: YFP reporter; E. coli; PhoQ-PhoP variant library, with: 10 µM Mg2+; reference: high Mg2+ state, higher = stronger signaling): 0.743
LSP1 (Homo sapiens, UniProt P33241) — cross-linked residues (DNAAF1 (Homo sapiens, UniProt Q8NEP3); cross-linking MS; cell fractions; with: DMTMM): K316 to D45
MCM3 (Homo sapiens, UniProt P25205) — interaction screen (MCM7 (Homo sapiens, UniProt P33993); cross-linking MS; hits only): cross-linked

Repeated from above (single results of other studies):
PRPF4 (Homo sapiens, UniProt O43172) — interaction screen (PRPF6 (Homo sapiens, UniProt O94906); cross-linking MS; hits only): cross-linked
